Results gathered from unrelated publications.
Numbered parts are unrelated; each lists some results of a single study.
UniProt Q6DT37, sequence (whole entry, looked up): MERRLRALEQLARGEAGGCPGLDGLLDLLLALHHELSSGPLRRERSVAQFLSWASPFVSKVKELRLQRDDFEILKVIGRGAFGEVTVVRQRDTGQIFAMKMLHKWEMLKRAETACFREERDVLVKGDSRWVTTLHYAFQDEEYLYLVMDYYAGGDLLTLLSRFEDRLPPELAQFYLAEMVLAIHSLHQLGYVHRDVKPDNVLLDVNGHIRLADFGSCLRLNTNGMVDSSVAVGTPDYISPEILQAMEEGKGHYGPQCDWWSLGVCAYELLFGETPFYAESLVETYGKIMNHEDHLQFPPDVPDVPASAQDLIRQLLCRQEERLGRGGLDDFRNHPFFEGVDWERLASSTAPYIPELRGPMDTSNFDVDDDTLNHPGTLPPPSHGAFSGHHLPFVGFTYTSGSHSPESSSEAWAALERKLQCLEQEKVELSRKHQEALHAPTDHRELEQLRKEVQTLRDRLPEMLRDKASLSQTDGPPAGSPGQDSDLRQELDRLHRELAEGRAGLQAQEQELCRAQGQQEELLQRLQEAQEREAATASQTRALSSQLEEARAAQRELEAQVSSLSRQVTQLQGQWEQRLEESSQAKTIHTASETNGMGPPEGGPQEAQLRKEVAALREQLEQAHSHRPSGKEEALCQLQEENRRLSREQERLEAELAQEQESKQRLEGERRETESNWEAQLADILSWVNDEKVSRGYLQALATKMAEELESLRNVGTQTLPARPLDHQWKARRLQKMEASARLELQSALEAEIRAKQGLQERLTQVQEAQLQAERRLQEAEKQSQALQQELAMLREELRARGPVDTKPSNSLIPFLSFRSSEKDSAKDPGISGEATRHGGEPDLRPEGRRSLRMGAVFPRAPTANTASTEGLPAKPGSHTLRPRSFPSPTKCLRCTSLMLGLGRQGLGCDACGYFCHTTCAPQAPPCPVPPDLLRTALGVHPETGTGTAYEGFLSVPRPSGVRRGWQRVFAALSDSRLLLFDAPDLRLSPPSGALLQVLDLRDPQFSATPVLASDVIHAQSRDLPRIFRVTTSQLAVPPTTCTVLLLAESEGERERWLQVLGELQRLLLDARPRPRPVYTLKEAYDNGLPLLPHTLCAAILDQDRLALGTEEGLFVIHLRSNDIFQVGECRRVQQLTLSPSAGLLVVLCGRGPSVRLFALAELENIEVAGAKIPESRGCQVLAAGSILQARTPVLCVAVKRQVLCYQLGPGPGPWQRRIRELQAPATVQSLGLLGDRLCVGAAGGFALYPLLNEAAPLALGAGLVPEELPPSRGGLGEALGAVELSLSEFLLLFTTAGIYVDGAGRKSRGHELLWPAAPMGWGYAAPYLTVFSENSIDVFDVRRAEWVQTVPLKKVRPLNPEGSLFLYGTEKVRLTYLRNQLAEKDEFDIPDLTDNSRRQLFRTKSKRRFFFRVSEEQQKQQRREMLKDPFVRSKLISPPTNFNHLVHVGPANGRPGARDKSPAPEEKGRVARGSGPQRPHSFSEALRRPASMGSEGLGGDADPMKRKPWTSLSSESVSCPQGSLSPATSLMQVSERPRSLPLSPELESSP
UniProt P16234, sequence (whole entry, looked up): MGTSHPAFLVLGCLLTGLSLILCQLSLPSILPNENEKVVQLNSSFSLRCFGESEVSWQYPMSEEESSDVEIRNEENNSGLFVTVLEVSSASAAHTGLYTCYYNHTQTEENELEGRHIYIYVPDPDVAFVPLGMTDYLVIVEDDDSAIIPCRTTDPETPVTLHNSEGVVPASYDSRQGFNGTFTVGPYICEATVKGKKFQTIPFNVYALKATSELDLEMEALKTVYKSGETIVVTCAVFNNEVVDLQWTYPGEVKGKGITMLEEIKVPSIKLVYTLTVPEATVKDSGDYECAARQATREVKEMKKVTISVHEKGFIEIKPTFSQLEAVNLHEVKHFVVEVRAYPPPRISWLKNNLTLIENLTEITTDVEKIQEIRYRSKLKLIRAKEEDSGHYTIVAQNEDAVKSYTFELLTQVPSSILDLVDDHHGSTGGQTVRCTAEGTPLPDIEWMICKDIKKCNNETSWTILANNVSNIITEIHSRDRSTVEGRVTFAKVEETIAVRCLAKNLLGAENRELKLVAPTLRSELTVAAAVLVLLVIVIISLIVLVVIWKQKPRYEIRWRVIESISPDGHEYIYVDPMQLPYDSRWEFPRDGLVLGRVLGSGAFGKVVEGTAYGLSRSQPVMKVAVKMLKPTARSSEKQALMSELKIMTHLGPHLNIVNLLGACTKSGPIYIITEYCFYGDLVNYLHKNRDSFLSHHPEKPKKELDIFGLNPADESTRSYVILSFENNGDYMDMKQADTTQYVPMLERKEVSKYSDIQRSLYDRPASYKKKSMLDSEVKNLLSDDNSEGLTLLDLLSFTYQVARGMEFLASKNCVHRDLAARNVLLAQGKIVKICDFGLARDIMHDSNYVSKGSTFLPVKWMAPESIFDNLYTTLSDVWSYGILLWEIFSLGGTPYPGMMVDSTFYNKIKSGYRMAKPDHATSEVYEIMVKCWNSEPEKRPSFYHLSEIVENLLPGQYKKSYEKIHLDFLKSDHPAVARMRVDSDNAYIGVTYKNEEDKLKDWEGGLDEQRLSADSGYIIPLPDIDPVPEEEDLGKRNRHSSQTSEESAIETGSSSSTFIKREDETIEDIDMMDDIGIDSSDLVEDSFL
UniProt Q16584, sequence (whole entry, looked up): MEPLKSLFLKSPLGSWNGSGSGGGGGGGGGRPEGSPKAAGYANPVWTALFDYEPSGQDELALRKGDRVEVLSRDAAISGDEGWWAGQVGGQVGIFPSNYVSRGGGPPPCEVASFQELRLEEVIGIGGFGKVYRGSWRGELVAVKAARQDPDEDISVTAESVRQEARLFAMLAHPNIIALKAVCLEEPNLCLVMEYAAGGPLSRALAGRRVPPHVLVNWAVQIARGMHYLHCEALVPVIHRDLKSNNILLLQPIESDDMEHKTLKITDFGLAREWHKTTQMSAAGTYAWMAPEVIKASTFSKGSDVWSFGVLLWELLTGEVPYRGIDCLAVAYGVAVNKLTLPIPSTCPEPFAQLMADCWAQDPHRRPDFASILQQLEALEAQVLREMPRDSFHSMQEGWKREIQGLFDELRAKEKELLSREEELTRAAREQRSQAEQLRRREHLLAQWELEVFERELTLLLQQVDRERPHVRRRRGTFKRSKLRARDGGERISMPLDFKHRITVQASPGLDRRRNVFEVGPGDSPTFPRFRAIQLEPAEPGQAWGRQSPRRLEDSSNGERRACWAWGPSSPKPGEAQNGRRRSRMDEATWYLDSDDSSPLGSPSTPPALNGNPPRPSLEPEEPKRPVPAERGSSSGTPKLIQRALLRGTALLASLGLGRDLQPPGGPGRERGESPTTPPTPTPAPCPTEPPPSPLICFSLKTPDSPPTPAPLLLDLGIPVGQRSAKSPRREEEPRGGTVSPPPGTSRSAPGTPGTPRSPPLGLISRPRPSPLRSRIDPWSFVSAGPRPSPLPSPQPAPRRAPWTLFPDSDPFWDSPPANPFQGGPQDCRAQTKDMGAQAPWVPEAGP
UniProt P30530, sequence (whole entry, looked up): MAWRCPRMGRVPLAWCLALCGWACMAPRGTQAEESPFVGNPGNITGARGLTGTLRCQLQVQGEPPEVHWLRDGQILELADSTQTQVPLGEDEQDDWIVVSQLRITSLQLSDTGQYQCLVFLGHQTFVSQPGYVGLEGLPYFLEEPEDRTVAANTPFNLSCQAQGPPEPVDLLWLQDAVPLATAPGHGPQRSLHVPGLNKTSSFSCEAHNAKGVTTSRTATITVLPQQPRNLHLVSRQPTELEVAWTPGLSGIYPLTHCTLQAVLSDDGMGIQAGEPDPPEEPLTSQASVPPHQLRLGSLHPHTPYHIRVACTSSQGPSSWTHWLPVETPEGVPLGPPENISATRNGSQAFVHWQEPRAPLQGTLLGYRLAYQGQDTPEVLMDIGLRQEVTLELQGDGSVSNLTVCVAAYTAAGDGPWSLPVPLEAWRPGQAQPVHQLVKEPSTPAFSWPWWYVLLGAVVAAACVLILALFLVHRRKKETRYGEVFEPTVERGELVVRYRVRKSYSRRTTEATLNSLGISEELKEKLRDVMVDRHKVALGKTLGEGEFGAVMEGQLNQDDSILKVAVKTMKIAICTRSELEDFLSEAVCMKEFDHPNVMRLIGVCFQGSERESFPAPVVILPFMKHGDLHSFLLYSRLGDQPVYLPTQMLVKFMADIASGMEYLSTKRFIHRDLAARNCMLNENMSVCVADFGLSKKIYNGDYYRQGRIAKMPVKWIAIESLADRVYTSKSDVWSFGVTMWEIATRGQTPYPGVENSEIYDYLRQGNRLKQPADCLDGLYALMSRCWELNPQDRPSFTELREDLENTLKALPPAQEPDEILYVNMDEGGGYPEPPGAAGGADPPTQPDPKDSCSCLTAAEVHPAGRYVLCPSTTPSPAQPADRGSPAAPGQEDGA

Series 1
Species: mouse
Matrix: microsomes or S9
Concentration: 2 µM
Time: 0.5 h
Compound	remaining compound
CCOc1cc(=O)n2c(c1C(=O)NCCc1ccc(OC)c(OC)c1)CCCC2	72.3%
Cc1cc(C)c2c(n1)oc1c(N3CCN(C(=O)c4ccco4)CC3)ncnc12	3.96%
COc1cccc(CN2CCC(C(=O)N3CCN(Cc4ccc5c(c4)OCO5)CC3)CC2)c1OC	50.5%
CCn1c(=O)n(CC)c2cc(NC(=O)CCN3Cc4ccccc4C3=O)ccc21	5.92%
O=S(=O)(NCC(c1ccco1)S(=O)(=O)c1ccccc1)c1ccc(Oc2ccccc2)cc1 (stereo not shown)	0.387%
CCOc1ccccc1O[C@@H](c1ccccc1)[C@@H]1CNCCO1	32.6%
CCc1cnc(N2CCN(C)C(C(=O)O)C2)nc1 (stereo not shown)	> 99%
COC(=O)c1ccc2c(=O)n(-c3ccccc3)c(N(Cc3ccco3)C3CCCC3)nc2c1	4.61%
Cc1cc(C(=O)Nc2cnn(Cc3ccc(Cl)cc3Cl)c2)c2c(C)nn(C)c2n1	42.6%

Series 2
Target: Beta-1 adrenergic receptor (ADRB1, Homo sapiens, UniProt P08588)
UniProt P08588, sequence (whole entry, looked up): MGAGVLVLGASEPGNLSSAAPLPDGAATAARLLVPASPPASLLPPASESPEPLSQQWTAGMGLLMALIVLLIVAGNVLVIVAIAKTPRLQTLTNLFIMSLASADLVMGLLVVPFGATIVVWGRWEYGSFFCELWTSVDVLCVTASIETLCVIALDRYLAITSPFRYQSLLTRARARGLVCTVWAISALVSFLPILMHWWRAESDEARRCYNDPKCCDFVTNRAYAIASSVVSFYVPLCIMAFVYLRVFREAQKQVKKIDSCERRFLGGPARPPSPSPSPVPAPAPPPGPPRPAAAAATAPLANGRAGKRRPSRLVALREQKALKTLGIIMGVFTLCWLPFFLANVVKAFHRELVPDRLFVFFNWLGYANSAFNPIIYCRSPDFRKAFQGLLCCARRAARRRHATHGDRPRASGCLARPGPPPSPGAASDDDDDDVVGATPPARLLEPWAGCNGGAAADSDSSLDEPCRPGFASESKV
Action: antagonist
SMILES	IC50
O=c1c2nc(-c3cccc(C(F)(F)F)c3)ccc2ncn1Cc1ccccn1	≥ 100 µM
N#Cc1cc2c(nc1N1CC(n3c(C4CC4)nc4ccccc43)C1)CCOC2	≥ 100 µM
O=C(NCCc1ccccn1)c1ccnc(-c2nnc3ccc(N4CCOCC4)nn23)c1	≥ 100 µM
O=C1CCCC2=C1C(c1ccc(O)cc1)Nc1ccc(C(=O)c3ccccc3)cc1N2 (stereo not shown)	≥ 100 µM
COc1ccccc1N1CCN(CC2CN3C(=O)N(C)c4ccccc4C3=N2)CC1 (stereo not shown)	≥ 100 µM
Cc1noc2c(-c3cccnc3N(C)C)cc(-c3ccccc3)nc12	≥ 100 µM

Series 3
SMILES: CCCCN(CCCC)C(=O)CN1C[C@@H](c2cc(OC)c3c(c2)OCO3)[C@H](C(=O)O)[C@H]1CC(C)(C)CCC
Concentration: 1 µM
target	observed	method	remaining binding
Testis-specific serine/threonine-protein kinase 1 (TSSK1B, Homo sapiens, UniProt Q9BXA7)	cell-free assay	competition with immobilised ligand	100%
Dual specificity tyrosine-phosphorylation-regulated kinase 1B (DYRK1B, Homo sapiens, UniProt Q9Y463)	cell-free assay	competition with immobilised ligand	95%
Ankyrin repeat and protein kinase domain-containing protein 1 (ANKK1, Homo sapiens, UniProt Q8NFD2)	cell-free assay	competition with immobilised ligand	95.7%
MAP kinase-activated protein kinase 2 (MAPKAPK2, Homo sapiens, UniProt P49137)	cell-free assay	competition with immobilised ligand	84.2%
Transient receptor potential cation channel subfamily M member 6 (TRPM6, Homo sapiens, UniProt Q9BX84)	cell-free assay	competition with immobilised ligand	90.4%
Receptor-type tyrosine-protein kinase FLT3 (FLT3, Homo sapiens, UniProt P36888, R834Q)	cell-free assay	competition with immobilised ligand	80.6%
Serine/threonine-protein kinase MRCK beta (CDC42BPB, Homo sapiens, UniProt Q9Y5S2)	cell-free assay	competition with immobilised ligand	100%
Tyrosine-protein kinase Fer (FER, Homo sapiens, UniProt P16591)	cell-free assay	competition with immobilised ligand	100%
Platelet-derived growth factor receptor alpha (PDGFRA, Homo sapiens, UniProt P16234)	cell-free assay	competition with immobilised ligand	100%
Mitogen-activated protein kinase kinase kinase 11 (MAP3K11, Homo sapiens, UniProt Q16584)	cell-free assay	competition with immobilised ligand	100%
Casein kinase I isoform alpha (CSNK1A1, Homo sapiens, UniProt P48729)	cell-free assay	competition with immobilised ligand	99.1%
Fibroblast growth factor receptor 3 (FGFR3, Homo sapiens, UniProt P22607, G697C)	cell-free assay	competition with immobilised ligand	94%
Receptor-type tyrosine-protein kinase FLT3 (FLT3, Homo sapiens, UniProt P36888, D835H)	cell-free assay	competition with immobilised ligand	100%
Mitogen-activated protein kinase kinase kinase 6 (MAP3K6, Homo sapiens, UniProt O95382)	cell-free assay	competition with immobilised ligand	100%
Serine/threonine-protein kinase pim-3 (PIM3, Homo sapiens, UniProt Q86V86)	cell-free assay	competition with immobilised ligand	81.5%
LIM domain kinase 2 (LIMK2, Homo sapiens, UniProt P53671)	cell-free assay	competition with immobilised ligand	86.8%
Calcium/calmodulin-dependent protein kinase type II subunit alpha (CAMK2A, Homo sapiens, UniProt Q9UQM7)	cell-free assay	competition with immobilised ligand	100%
Serine/threonine-protein kinase Chk1 (CHEK1, Homo sapiens, UniProt O14757)	cell-free assay	competition with immobilised ligand	100%
Mitotic checkpoint serine/threonine-protein kinase BUB1 (BUB1, Homo sapiens, UniProt O43683)	cell-free assay	competition with immobilised ligand	94.9%
Membrane-associated tyrosine- and threonine-specific cdc2-inhibitory kinase (PKMYT1, Homo sapiens, UniProt Q99640)	cell-free assay	competition with immobilised ligand	100%
Serine/threonine-protein kinase MRCK gamma (CDC42BPG, Homo sapiens, UniProt Q6DT37)		competition binding	94.4%
Receptor-type tyrosine-protein kinase FLT3 (FLT3, Homo sapiens, UniProt P36888, N841I)	cell-free assay	competition with immobilised ligand	96.1%
Mitogen-activated protein kinase kinase kinase kinase 3 (MAP4K3, Homo sapiens, UniProt Q8IVH8)	cell-free assay	competition with immobilised ligand	94.1%

Series 4
SMILES: Cc1sc(C(=O)NC2COC2)cc1-n1cc(NC(=O)Nc2c(F)cccc2Cl)cn1
Concentration: 10 µM
target	observed	method	relative to	remaining activity
Interleukin-1 receptor-associated kinase 4 (IRAK4, Homo sapiens, UniProt Q9NWZ3)	enzyme activity		untreated control	102%
Serine/threonine-protein kinase MRCK gamma (CDC42BPG, Homo sapiens, UniProt Q6DT37)	kinase activity	kinase panel profiling		118%
Tyrosine-protein kinase receptor UFO (AXL, Homo sapiens, UniProt P30530)	enzyme activity		untreated control	85.7%
Serine/threonine-protein kinase PAK 1 (PAK1, Homo sapiens, UniProt Q13153)	enzyme activity		untreated control	98.2%
Platelet-derived growth factor receptor beta (PDGFRB, Homo sapiens, UniProt P09619)	enzyme activity		untreated control	88.3%
Serine/threonine-protein kinase OSR1 (OXSR1, Homo sapiens, UniProt O95747)	enzyme activity		untreated control	118%
Cyclin-dependent kinase 4, with cyclin D1 (CDK4, Homo sapiens, UniProt P11802)	enzyme activity		untreated control	72.9%
Receptor-interacting serine/threonine-protein kinase 4 (RIPK4, Homo sapiens, UniProt P57078)	enzyme activity		untreated control	98.5%

Some of these lines once more (series 1):
Compound	remaining compound
CCOc1cc(=O)n2c(c1C(=O)NCCc1ccc(OC)c(OC)c1)CCCC2	72.3%
O=S(=O)(NCC(c1ccco1)S(=O)(=O)c1ccccc1)c1ccc(Oc2ccccc2)cc1 (stereo not shown)	0.387%
Cc1cc(C(=O)Nc2cnn(Cc3ccc(Cl)cc3Cl)c2)c2c(C)nn(C)c2n1	42.6%
Cc1cc(C)c2c(n1)oc1c(N3CCN(C(=O)c4ccco4)CC3)ncnc12	3.96%
